Published values pooled from the literature.
Every numbered part comes from another study and shows a few of its results, in no order. Positions count from the first letter of the parent shown.

Block 1
Target: Protein C-ets-1 (ETS1, Homo sapiens, UniProt P14921, residues 1-441, full length assumed)
Chain of UniProt P14921 (whole entry, looked up): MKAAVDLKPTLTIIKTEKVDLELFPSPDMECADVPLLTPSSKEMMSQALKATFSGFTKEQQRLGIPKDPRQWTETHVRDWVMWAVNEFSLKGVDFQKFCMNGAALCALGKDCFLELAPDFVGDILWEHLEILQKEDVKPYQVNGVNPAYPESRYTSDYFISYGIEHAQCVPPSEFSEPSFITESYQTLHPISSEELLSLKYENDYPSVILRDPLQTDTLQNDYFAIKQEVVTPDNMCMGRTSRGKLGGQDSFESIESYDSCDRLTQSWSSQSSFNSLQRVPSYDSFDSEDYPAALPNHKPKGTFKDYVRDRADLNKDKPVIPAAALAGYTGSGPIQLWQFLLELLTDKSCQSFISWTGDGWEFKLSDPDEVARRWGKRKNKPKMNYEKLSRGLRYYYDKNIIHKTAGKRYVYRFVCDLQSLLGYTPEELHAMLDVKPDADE
Method: protein-binding microarray
Molecule type: double-stranded DNA, one strand shown
Medium: in vitro
Tested at: not given
Notes: k-mer, scored over probes, only values ≥0.25
Reading: higher = stronger binding
With `ACCGGAGG` the E-score was 0.432.
`AGCGGATC` has an E-score of 0.277.
With `CGGATGCC` the E-score was 0.465.
The E-score of `CAACGTCC` is reported as 0.283.
`GGAAAGGA` has an E-score of 0.344.
With `GCAGGATA` the E-score was 0.397.
`ACAGGAAG` has an E-score of 0.486.
For `CCGGATGA`, the E-score was 0.466.
The E-score of `CATCCCGA` is reported as 0.318.
The E-score of `AATCCCCG` is reported as 0.308.
`CGGATATA` gave an E-score of 0.457.
`ACCCGGAT` gave an E-score of 0.404.
For `GCGGATAC`, the E-score was 0.432.
With `AGAACCGG` the E-score was 0.255.
For `CCACTCAG`, the E-score was 0.259.
`GACGGAAA` gave an E-score of 0.452.
With `CGGGAAAC` the E-score was 0.396.

Block 2
Target: Fragile X messenger ribonucleoprotein 1, C-terminal low-complexity region (Fmr1, Mus musculus, UniProt P35922)
Method: RNA Bind-n-Seq
Molecule type: RNA
Medium: in vitro
Tested at: 200 nM
Notes: whole 134-nt RNA, ends assumed
Together with: 150 mM LiCl
Baseline: input library
Reading: higher = stronger binding
Library: 7-deaza-guanosine replaces G
The log2 enrichment of `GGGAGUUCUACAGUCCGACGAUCGGGACGUCAGCAUCGGCAUCAAGUGUGCCCCUGGAGUGGUAGGCCCCGCCGAAGCUGACAUCGACUUCGACAUCAUCCGCAAUGACAAUGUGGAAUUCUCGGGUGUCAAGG` is reported as -3.25.
With `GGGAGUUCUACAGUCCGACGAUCUCAAGUCCUGUGCUACACAUCGUAUGUACCGAAUCGGUGGAAAAAGGUUUUUGGAAAGUAUUAUGUUACGCCGUUCGGAUCUGCACUUCCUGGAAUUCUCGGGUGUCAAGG` the log2 enrichment was -1.55.
The log2 enrichment of `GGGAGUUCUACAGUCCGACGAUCGCAGGAAGUAAAAGCAAAUGGAAAUGCUUCGGAUAGUGGCAGGGGUGGGGGUUGCUAAGGAAAGGGUGGGAUGGGAGUGGGUAAAGAGUUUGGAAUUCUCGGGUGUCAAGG` is reported as 1.58.
`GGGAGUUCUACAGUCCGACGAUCUCCUGUGCUACACAUCGUAUGUACCGAAUCGGGGAAAGGGGUUUUUUUGGGGUUUGGGGAAAGUAUUAUGUUACGCCGUUCGGAUCUGCAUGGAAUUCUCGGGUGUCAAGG` has a log2 enrichment of -1.11.
With `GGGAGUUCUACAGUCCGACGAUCUCCUGUGCUACACAUCGUAUGUACCGAAUCGGGGAAAAAAAGGGGAGGGGAAAAAGGGGAAAGUAUUAUGUUACGCCGUUCGGAUCUGCAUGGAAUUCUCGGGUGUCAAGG` the log2 enrichment was -0.661.
`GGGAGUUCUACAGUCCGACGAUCGUCCUGUGCUACACAUCGUAUGUACCGAAUCGGGGAAAGGGGUGGGGAAAAAAAGGGGAAAGUAUUAUGUUACGCCGUUCGGAUCUGCACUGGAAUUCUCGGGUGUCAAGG` has a log2 enrichment of -0.289.
The log2 enrichment of `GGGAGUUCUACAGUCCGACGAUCCAAGUCCUGUGCUACACAUCGUAUGUACCGAAUCGGGUGGGUUUGGGUUUUUGGGAAAGUAUUAUGUUACGCCGUUCGGAUCUGCACUUCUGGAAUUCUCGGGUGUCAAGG` is reported as -0.689.
For `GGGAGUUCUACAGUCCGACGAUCGUCCUGUGCUACACAUCGUAUGUACCGAAUCGGGGUUUGGGGUGGGGUUUUUUUGGGGAAAGUAUUAUGUUACGCCGUUCGGAUCUGCACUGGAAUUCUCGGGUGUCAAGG`, the log2 enrichment was 0.194.
For `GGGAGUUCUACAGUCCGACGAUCUCCUGUGCUACACAUCGUAUGUACCGAAUCGGGCCCCCGGGGCCCCCGGGGCCCCCGGGAAAGUAUUAUGUUACGCCGUUCGGAUCUGCAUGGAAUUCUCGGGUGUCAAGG`, the log2 enrichment was -1.54.
`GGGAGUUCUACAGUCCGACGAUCACCAUGCAGGUGGGCAUCUUUGGGAAGUGGGGCAAGGGGGGGAUAGGGAGGGGGGUAACACUUUGGGAACAGGUAAACCCAGGUCGUUUCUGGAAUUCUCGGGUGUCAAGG` gave a log2 enrichment of 1.52.
`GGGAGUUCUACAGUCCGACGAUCGUCCUGUGCUACACAUCGUAUGUACCGAAUCGGGGAGGGGUUUUUGGGGAAAAAGGGGAAAGUAUUAUGUUACGCCGUUCGGAUCUGCACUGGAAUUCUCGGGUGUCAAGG` has a log2 enrichment of 0.243.

Block 3
Target: RING finger protein unkempt homolog, zinc fingers 1-6, GST-SBP tag (UNK, Homo sapiens, UniProt Q9C0B0, residues 30-357)
Method: RNA Bind-n-Seq
Molecule type: RNA
Medium: in vitro
Tested at: not given
Notes: RNA with constant flanks, human-mouse chimeric sites, ends assumed
Baseline: input RNA pool
Reading: higher = stronger binding
Construct (chain): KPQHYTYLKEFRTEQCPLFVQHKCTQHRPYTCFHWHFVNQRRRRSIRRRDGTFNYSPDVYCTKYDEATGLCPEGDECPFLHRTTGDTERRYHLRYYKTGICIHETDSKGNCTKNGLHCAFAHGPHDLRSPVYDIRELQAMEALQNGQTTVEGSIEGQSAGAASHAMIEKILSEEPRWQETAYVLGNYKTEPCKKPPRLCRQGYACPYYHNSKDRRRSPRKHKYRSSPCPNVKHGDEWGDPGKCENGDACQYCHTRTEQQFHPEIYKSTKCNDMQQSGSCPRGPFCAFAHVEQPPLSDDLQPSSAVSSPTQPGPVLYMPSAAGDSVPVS
The bound/input enrichment of `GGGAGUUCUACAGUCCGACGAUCCUCAGAGAUGUGGCAUAUCAGUAUGUGAAAAAGGGGGCUCGUAUAUUUGUGGAAGGGAAAGUGGACUAUGGUGAAUACAUGGAUAAAAACAAUGUGAGGCGGCAAGCAACAACAAUCAUACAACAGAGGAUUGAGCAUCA` is reported as 0.364 ratio.
The bound/input enrichment of `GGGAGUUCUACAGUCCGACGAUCUCUGGUCACACUCGUGUGUAUGGUGUUUGCUUUGUUGACACUUCACUGGGCAAGUUUUUCAUCGGCCAGUUUUCGGAUGACCGCCACUGUUCGAGAUUUAGGACGCUAGUGGCUCACUAUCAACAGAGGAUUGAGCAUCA` is reported as 0.234 ratio.
For `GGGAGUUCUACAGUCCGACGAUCAUAGAUGAAAUUGAUGUGGACCAGGAAGGAAUUGCAGAAAUGAUGCUGGAUGAAAAUGCUAUUGCUCAGGUCCCACGCCCUGGCACAUCUUUGAAGCUCCCUGGCACUAACCAAACAGGACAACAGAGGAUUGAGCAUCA`, the bound/input enrichment was 0.316 ratio.
With `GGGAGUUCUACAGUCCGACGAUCGUUGCCAGCUUCCGGUUGGCCUCCAUCCGGUUCUCUCCUGAGCUACGUGUCUCUACGCUCUCAAUCCGCCAUCCAACAAACAUGGAUGAUCAGGUAAAGUUUGUGGAGCCCAGCCGGCAGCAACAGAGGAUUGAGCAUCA` the bound/input enrichment was 0.0961 ratio.
With `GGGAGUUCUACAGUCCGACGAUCGCCACCAGAUCCCAGAAACAUGACCCUUGCUGCCUACAAAGAGAAGAUGAAGGAACUCCCACUAGUGUCCUUGUUCUGCUCCUGCUUCCUGGCCGAUCCCCUGAAUAAGUCGUCCUACAACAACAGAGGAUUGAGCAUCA` the bound/input enrichment was 1.22 ratio.
For `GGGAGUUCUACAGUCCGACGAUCAGAAAGCAAAACUUGGAACGAUUUAAGAAAGGAGACGUAAGAUUCUUGAUUUGCACAGAUGUAGCUGCUAGAGGAAUUGAUAUCCAUGGCGUUCCUUAUGUUAUAAACGUCACCCUGCCUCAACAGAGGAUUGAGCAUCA`, the bound/input enrichment was 0.221 ratio.
`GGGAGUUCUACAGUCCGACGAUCGAAACAUUUAAAUUUAAAGAAGCUGUUGUUUUAGGGAGUACGGACUUUCUAGAAGAUGAUAUAGAGAAAAUUGUAGAAGAACUGGGGAAAGAGUAUAAGGGCAACGCCUACCAUCUGAUGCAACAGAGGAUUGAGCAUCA` has a bound/input enrichment of 2.9 ratio.
With `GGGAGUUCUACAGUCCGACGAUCGGACAUCUGUCAAAUUGUAUUUCCCGUGUGAAACAAGUGAACACUCUGAUACACUUCAUCUGCUUGUACAUCUGUAUGAUAGAGAAAUGUAAAUAUGAAUAUAUUUACAAUGUGUCACUUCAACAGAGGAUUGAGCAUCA` the bound/input enrichment was 0.116 ratio.
For `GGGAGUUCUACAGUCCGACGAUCAGUGUGCAGGAAUUCAUGACCUUUACAAGUCAACUGAUUGUGGAACGCUCGGGGAAAGGCAGCAGAGCUUCUGUCAAAGAACAAGACUAUCUUUGCCACGUCUACGUCCGGAGCGACAGUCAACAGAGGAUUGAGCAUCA`, the bound/input enrichment was 0.117 ratio.
For `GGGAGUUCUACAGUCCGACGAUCGAGUCGAUUAUGGAAACAACAAUUCGUUUUACAAAAACCUCAGUGUUCACUUGCUUGGCGAUAGCAUUGGGGUUUUAUAGGUUCUGGAAGGAGAACUGACGAUGAUGCUGCCGCUGCUGCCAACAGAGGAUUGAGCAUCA`, the bound/input enrichment was 0.27 ratio.
With `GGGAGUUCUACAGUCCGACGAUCCAGUCCCGCGACAGCGUUGCAGGACGAGAACAUGGACAACUCAAAGCGGACCCUCUAUUGUAGUUCUUGAUUCUCGAAAUGUGCUAUUAUUGUUUGUCUUUUUUUUUUUUUUUUUAAAGACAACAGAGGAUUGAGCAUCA` the bound/input enrichment was 0.746 ratio.

Block 4
Target: Histone acetyltransferase KAT6A, winged helix 1, GST fusion (KAT6A, Homo sapiens, UniProt Q92794, residues 1-85)
Method: protein binding microarray
Molecule type: double-stranded DNA, one strand shown
Medium: in vitro
Tested at: not given
Notes: 8-mer, flanks averaged, mean of 2 arrays, mostly near background
Baseline: not given
Reading: higher = stronger binding
Target sequence (chain): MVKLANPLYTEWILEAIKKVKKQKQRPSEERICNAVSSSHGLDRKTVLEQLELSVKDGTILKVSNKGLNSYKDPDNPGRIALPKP
`CAAACCTC` has an E-score of -0.197.
`ACACCGCC` gave an E-score of 0.187.
`GATACCAA` has an E-score of 0.0849.
With `CAGGCAAC` the E-score was -0.173.
With `CTCCCACA` the E-score was -0.115.
The E-score of `CAACTGTG` is reported as 0.0275.
With `ACTCTGAC` the E-score was -0.064.
For `AGAGTAGA`, the E-score was -0.0694.
The E-score of `ATCCTGCG` is reported as 0.0293.
The E-score of `AAGAGTGG` is reported as -0.141.
With `CTCTGTCC` the E-score was 0.0125.
With `AAAGCTGG` the E-score was -0.131.
The E-score of `CTGAATGA` is reported as -0.0331.
For `CCAGACGC`, the E-score was 0.132.
The E-score of `CGCGTGCA` is reported as 0.238.
`AAATCAGT` has an E-score of -0.0713.
With `ACCCTTGG` the E-score was -0.192.
The E-score of `ACGAAGGC` is reported as 0.0271.
The E-score of `AGAAGAAA` is reported as -0.186.
The E-score of `CATCACGA` is reported as -0.214.
With `TCGCCCAA` the E-score was -0.0154.
For `AAACGCTG`, the E-score was -0.00125.
`GACCACTA` gave an E-score of -0.26.
The E-score of `CCCTACGA` is reported as -0.153.

Block 5
Target: CCNB2, cyclin fold, Cln2 fusion (human)
Method: yeast growth competition, sequencing
Medium: yeast
Notes: weak parent motif
Baseline: not given
Reading: higher = stronger binding
Starting sequence: HIRA docking peptide (human); SLSKRKLELEVET
For `L7A`, “normalised enrichment score” read -0.287.
`K4A` — result for “normalised enrichment score”: -0.375.
For `K6A`, “normalised enrichment score” read -0.189.
Under “normalised enrichment score”, `R5K L9F` is recorded as -0.251.
`S1A`: “normalised enrichment score” -0.0463.
Under “normalised enrichment score”, `E12A` is recorded as -0.0878.
Under “normalised enrichment score”, `R5A L7A` is recorded as -0.239.
`L9F`: “normalised enrichment score” -0.0649.
`S3A`: “normalised enrichment score” -0.308.
For `L2A`, “normalised enrichment score” read -0.159.

Other studies, line by line
For `PhoQ, residues 284 288 289 292 302 303 SLCLSL`, the fold induction was 2.27 (PhoP, residues 12 14 15 18 19 IFFTR (Escherichia coli, UniProt P23836); Sort-seq, item: YFP reporter; E. coli; PhoQ-PhoP variant library, together with: 10 µM Mg2+; baseline: high Mg2+ state, higher = stronger signaling).

Some of these lines once more (block 4):
With `AAAGCTGG` the E-score was -0.131.
The E-score of `CTGAATGA` is reported as -0.0331.
For `CCAGACGC`, the E-score was 0.132.
The E-score of `CGCGTGCA` is reported as 0.238.
`AAATCAGT` has an E-score of -0.0713.
With `ACCCTTGG` the E-score was -0.192.
The E-score of `ACGAAGGC` is reported as 0.0271.
The E-score of `AGAAGAAA` is reported as -0.186.
The E-score of `CATCACGA` is reported as -0.214.
With `TCGCCCAA` the E-score was -0.0154.
For `AAACGCTG`, the E-score was -0.00125.
`GACCACTA` gave an E-score of -0.26.
